Experimental data pooled from the literature.
Lines come from different studies, so protocols differ. Numbers after ± are the reported error.

CCCC[C@H](NC(=O)COCCOCCNC(=O)CN1CCN(CC(=O)O)CCN(CC(=O)O)CC1)C(=O)N[C@H]1CC(=O)NCCCC[C@@H](C(N)=O)NC(=O)[C@H](Cc2c[nH]c3ccccc23)NC(=O)[C@H](CCCNC(=N)N)NC(=O)[C@@H](Cc2ccccc2)NC(=O)[C@H](Cc2c[nH]cn2)NC1=O [fluorine-18 labelled]
tissue uptake (C57 mice B16-F10 melanoma, lung; intravenous, 0.37 MBq, 0.5 h): 2.28 ± 0.27 %ID/g

CCCC[C@H](NC(=O)CNC(=O)CNC(=O)[C@H](CCCCNC(=O)[C@H](CC(=O)O)NC(=O)C(C)c1ccc(CC(C)C)cc1)NC(=O)CN1CCN(CC(=O)O)CCN(CC(=O)O)CCN(CC(=O)O)CC1)C(=O)N[C@H]1CC(=O)NCCCC[C@@H](C(N)=O)NC(=O)[C@H](Cc2c[nH]c3ccccc23)NC(=O)[C@H](CCCNC(=N)N)NC(=O)[C@@H](Cc2ccccc2)NC(=O)[C@H](Cc2c[nH]cn2)NC1=O (some centres unmarked) [lutetium-177 labelled]
tissue uptake (C57 mice, tumour-bearing, blood; 2 h): 0.87 ± 0.31 %ID/g

N#C[C@@H]1CC(F)(F)CN1C(=O)CNC(=O)c1ccnc2c(NC(=O)CCOCCOCCOCCOCCOCCOCCNC(=O)[C@H](CCCCNC(=O)CN3CCN(CC(=O)[O-])CCN(CC(=O)[O-])CCN(CC(=O)[O-])CC3)NC(=O)CCCc3ccc(I)cc3)cccc12.[177Lu+3]
tissue uptake (mouse, U-87 MG tumour xenograft, salivary gland; 4 h): 2.24 ± 0.53 %ID/g

COc1cccc(OC)c1-c1cc(C(=O)NC2(C(=O)O)C3CC4CC(C3)CC2C4)nn1-c1ccc(C(=O)N(C)CCCN(C)CCCN(C)C(=O)[C@H](CCCCNC(=O)[C@H](CC(C)C)NC(=O)C2OC2C(=O)O)NC(=O)CN2CCN(CC(=O)[O-])CCN(CC(=O)[O-])CCN(CC(=O)[O-])CC2)cc1C(C)C.[177Lu+3] (mixture of isomers)
tissue uptake (mouse, HT-29 xenograft, heart; 168 h post injection): 0.11 %ID/g

Cc1cc(C)n(CCN(CCN)CCCCCCNC(=O)[C@@H](N)Cc2c[nH]cn2)n1.[99Tc+].[C-]#[O+].[C-]#[O+].[C-]#[O+]
tissue uptake (BALB/c nude mice A549 xenograft, tumor; intravenous, 24 h): 0.76 ± 0.2 %ID/g

COc1cccc(OC)c1-c1cc(C(=O)NC2(C(=O)O)C3CC4CC(C3)CC2C4)nn1-c1ccc(C(=O)N(C)CCCN(C)C(=O)[C@H](CCCCNC(=O)[C@H](CC(C)C)NC(=O)C2OC2C(=O)O)NC(=O)CN2CCN(CC(=O)[O-])CCN(CC(=O)[O-])CCN(CC(=O)[O-])CC2)cc1C(C)C.[177Lu+3] (mixture of isomers)
tissue uptake (mouse, HT-29 xenograft, heart; 72 h post injection): 0.06 %ID/g

[11CH3]N1CCC(NC(=O)c2cc(-c3c(O)cc(O)cc3Oc3ccc([N+](=O)[O-])cc3)on2)CC1
tissue uptake (Wistar rat, female, healthy, kidneys; intravenous, 30 min): 5.2 ± 0.4 %ID

[123I]c1ccc2nc(-c3ccc(-n4ccnn4)nc3)cn2c1
tissue uptake (Wistar rat, adrenals; intravenous, 24 h): not detected

CC(C)Cc1ccc(C(C)C(=O)N[C@@H](CCCCNC(=O)CCOCCOCCOCCOCCOCCOCCNC(=O)CN2CCN(CC(=O)[O-])CCN(CC(=O)[O-])CCN(CC(=O)[O-])CC2)C(=O)Nc2cccc3c(C(=O)NCC(=O)N4CC(F)(F)C[C@H]4C#N)ccnc23)cc1.[177Lu+3] (some centres unmarked)
tissue uptake (mouse, U-87 MG tumour xenograft, salivary gland; 24 h): 2.15 ± 0.86 %ID/g

COc1ccc(Nc2nc(Nc3ccc(OCCOCC[18F])cc3)ncc2Br)cc1
tissue uptake (ICR mice, S180 tumour-bearing, heart; intravenous, 370 kBq, 60 min): 2.88 ± 0.23 %ID/g

COc1cccc(OC)c1-c1cc(C(=O)NC2(C(=O)O)C3CC4CC(C3)CC2C4)nn1-c1ccc(C(=O)NCCNC(=O)[C@H](CCCCNC(=O)[C@H](CC(C)C)NC(=O)C2OC2C(=O)O)NC(=O)CN2CCN(CC(=O)[O-])CCN(CC(=O)[O-])CCN(CC(=O)[O-])CC2)cc1C(C)C.[177Lu+3] (mixture of isomers)
tissue uptake (mouse, HT-29 xenograft, brain; 24 h post injection): 0.07 %ID/g

N#C[C@@H]1CC(F)(F)CN1C(=O)CNC(=O)c1ccnc2c(NC(=O)[C@H](CCCCNC(=O)CCOCCOCCOCCOCCOCCOCCNC(=O)CN3CCN(CC(=O)[O-])CCN(CC(=O)[O-])CCN(CC(=O)[O-])CC3)NC(=O)CCCc3ccc(I)cc3)cccc12.[177Lu+3]
tissue uptake (mouse, U-87 MG tumour xenograft, salivary gland; 48 h): 1.06 ± 0.5 %ID/g

COc1cccc(OC)c1-c1cc(C(=O)NC2(C(=O)O)C3CC4CC(C3)CC2C4)nn1-c1ccc(C(=O)N(C)CCOCCOCCN(C)C(=O)[C@H](CCCCNC(=O)[C@H](CC(C)C)NC(=O)C2OC2C(=O)O)NC(=O)CN2CCN(CC(=O)[O-])CCN(CC(=O)[O-])CCN(CC(=O)[O-])CC2)cc1C(C)C.[177Lu+3] (mixture of isomers)
tissue uptake (mouse, HT-29 xenograft, lung; 72 h post injection): 0.3 %ID/g

N#C[C@@H]1CC(F)(F)CN1C(=O)CNC(=O)c1ccnc2c(NC(=O)[C@@H](N)CCCCNC(=O)CCOCCOCCOCCOCCOCCOCCNC(=O)CN3CCN(CC(=O)[O-])CCN(CC(=O)[O-])CCN(CC(=O)[O-])CC3)cccc12.[177Lu+3]
tissue uptake (mouse, U-87 MG tumour xenograft, kidneys; 4 h): 4.44 ± 0.53 %ID/g

O=C(O)CCCOc1ccc([18F])cc1-c1cc(-c2ccccc2C(F)(F)F)n(-c2ccccc2)n1
tissue uptake (mouse, small intestine; intravenous, dose not given, 360 min): 4.2 ± 0.79 %ID/g

COc1cccc(OC)c1-c1cc(C(=O)NC2(C(=O)O)C3CC4CC(C3)CC2C4)nn1-c1ccc(C(=O)N(C)CCOCCN(C)C(=O)[C@H](CCCCNC(=O)[C@H](CC(C)C)NC(=O)C2OC2C(=O)O)NC(=O)CN2CCN(CC(=O)[O-])CCN(CC(=O)[O-])CCN(CC(=O)[O-])CC2)cc1C(C)C.[177Lu+3] (mixture of isomers)
tissue uptake (mouse HT-29 xenograft, large intestine; 4 h post injection, biodistribution): 2.2 %ID/g

CC(C)C[C@H](NC(=O)[C@@H](CCCCNC(=O)[C@@H](Cc1ccccc1)NC(=O)CCCCCCCNC(=O)CN1CCN(CC(=O)O)CCN(CC(=O)O)CCN(CC(=O)O)CC1)NC(=O)[C@H](Cc1ccc(O)cc1)NC(=O)[C@H](CO)NC(=O)[C@H](Cc1c[nH]c2ccccc12)NC(=O)[C@H](Cc1c[nH]cn1)NC(=O)[C@@H]1CCC(=O)N1)C(=O)N[C@@H](CCCNC(=N)N)C(=O)N1CCC[C@H]1C(=O)NCC(N)=O [indium-111 labelled]
tissue uptake (male athymic nude mice, DU-145 xenograft, intestines; intravenous, 1 h, with: 10 µg unlabelled blocking peptide): 1.1 ± 0.64 %ID

A few entries again:
N#C[C@@H]1CC(F)(F)CN1C(=O)CNC(=O)c1ccnc2c(NC(=O)[C@@H](N)CCCCNC(=O)CCOCCOCCOCCOCCOCCOCCNC(=O)CN3CCN(CC(=O)[O-])CCN(CC(=O)[O-])CCN(CC(=O)[O-])CC3)cccc12.[177Lu+3]
tissue uptake (mouse, U-87 MG tumour xenograft, kidneys; 4 h): 4.44 ± 0.53 %ID/g

CCCC[C@H](NC(=O)COCCOCCNC(=O)CN1CCN(CC(=O)O)CCN(CC(=O)O)CC1)C(=O)N[C@H]1CC(=O)NCCCC[C@@H](C(N)=O)NC(=O)[C@H](Cc2c[nH]c3ccccc23)NC(=O)[C@H](CCCNC(=N)N)NC(=O)[C@@H](Cc2ccccc2)NC(=O)[C@H](Cc2c[nH]cn2)NC1=O [fluorine-18 labelled]
tissue uptake (C57 mice B16-F10 melanoma, lung; intravenous, 0.37 MBq, 0.5 h): 2.28 ± 0.27 %ID/g
